# Results of several laboratories.
# Each numbered part is a random draw from the data of one study; scales do not carry over between parts. Substitutions count along the parent as printed.
# UniProt Q04912, sequence (whole entry, looked up): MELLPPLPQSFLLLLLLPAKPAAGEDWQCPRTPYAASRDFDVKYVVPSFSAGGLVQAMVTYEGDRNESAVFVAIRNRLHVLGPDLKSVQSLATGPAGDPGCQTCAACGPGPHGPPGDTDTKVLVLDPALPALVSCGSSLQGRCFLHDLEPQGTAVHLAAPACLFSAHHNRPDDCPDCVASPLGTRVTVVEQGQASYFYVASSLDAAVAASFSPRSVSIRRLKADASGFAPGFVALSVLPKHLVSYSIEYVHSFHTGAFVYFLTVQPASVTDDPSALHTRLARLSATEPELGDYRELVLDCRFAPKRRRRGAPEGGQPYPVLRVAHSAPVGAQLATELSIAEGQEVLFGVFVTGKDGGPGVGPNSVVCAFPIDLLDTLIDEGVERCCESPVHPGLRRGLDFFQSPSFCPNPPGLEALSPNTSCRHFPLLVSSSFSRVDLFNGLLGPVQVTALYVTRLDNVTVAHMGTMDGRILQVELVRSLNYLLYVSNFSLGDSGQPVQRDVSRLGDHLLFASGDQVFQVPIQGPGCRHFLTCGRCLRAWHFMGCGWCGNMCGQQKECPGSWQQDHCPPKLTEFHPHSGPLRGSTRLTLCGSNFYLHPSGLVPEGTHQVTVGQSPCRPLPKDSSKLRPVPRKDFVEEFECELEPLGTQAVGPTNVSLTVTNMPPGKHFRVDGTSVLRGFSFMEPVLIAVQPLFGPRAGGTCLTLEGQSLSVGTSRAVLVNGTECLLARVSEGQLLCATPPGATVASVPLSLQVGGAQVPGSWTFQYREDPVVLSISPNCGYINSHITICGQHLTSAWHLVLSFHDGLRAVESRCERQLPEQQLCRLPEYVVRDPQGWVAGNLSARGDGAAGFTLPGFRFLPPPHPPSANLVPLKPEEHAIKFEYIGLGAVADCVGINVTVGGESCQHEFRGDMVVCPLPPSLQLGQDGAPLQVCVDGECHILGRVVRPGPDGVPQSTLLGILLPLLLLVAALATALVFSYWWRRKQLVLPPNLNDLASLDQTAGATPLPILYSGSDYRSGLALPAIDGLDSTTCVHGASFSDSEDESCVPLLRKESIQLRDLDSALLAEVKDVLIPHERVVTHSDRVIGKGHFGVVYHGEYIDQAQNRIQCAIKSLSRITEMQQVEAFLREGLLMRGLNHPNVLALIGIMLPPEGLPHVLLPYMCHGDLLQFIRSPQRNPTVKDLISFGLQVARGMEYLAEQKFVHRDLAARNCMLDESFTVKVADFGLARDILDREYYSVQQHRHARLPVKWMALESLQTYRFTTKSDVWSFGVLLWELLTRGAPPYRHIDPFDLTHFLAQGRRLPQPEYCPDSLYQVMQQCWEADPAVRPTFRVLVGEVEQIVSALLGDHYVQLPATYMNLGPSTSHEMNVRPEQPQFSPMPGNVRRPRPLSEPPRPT
# UniProt P49841, sequence (whole entry, looked up): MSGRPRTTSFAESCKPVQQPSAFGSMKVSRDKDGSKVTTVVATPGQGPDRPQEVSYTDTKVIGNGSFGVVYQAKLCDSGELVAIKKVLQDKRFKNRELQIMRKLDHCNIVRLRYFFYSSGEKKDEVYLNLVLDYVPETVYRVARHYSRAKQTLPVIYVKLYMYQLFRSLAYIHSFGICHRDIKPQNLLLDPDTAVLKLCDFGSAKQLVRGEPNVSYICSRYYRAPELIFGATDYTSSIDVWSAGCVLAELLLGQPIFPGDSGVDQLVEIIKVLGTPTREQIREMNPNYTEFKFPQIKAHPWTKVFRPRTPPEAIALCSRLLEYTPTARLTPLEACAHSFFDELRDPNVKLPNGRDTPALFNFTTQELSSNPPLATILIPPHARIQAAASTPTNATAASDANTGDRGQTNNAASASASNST
# UniProt P30291, sequence (whole entry, looked up): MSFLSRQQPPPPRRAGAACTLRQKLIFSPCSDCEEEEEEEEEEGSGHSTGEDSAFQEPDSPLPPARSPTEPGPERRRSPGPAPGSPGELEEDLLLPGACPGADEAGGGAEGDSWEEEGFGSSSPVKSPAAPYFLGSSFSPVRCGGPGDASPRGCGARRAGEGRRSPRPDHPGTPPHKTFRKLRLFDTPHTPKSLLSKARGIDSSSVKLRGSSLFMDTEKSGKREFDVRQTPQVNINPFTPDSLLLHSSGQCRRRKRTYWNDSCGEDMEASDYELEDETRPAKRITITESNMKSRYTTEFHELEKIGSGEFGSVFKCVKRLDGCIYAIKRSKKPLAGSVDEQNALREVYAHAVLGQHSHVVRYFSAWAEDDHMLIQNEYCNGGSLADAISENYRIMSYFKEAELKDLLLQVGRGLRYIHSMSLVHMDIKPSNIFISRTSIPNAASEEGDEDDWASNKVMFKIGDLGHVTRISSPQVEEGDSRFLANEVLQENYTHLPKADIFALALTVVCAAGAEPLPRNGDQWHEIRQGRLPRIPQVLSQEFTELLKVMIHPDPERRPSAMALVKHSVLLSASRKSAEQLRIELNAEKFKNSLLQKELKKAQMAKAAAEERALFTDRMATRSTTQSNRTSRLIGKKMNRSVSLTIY
# UniProt Q9NSY1, sequence (whole entry, looked up): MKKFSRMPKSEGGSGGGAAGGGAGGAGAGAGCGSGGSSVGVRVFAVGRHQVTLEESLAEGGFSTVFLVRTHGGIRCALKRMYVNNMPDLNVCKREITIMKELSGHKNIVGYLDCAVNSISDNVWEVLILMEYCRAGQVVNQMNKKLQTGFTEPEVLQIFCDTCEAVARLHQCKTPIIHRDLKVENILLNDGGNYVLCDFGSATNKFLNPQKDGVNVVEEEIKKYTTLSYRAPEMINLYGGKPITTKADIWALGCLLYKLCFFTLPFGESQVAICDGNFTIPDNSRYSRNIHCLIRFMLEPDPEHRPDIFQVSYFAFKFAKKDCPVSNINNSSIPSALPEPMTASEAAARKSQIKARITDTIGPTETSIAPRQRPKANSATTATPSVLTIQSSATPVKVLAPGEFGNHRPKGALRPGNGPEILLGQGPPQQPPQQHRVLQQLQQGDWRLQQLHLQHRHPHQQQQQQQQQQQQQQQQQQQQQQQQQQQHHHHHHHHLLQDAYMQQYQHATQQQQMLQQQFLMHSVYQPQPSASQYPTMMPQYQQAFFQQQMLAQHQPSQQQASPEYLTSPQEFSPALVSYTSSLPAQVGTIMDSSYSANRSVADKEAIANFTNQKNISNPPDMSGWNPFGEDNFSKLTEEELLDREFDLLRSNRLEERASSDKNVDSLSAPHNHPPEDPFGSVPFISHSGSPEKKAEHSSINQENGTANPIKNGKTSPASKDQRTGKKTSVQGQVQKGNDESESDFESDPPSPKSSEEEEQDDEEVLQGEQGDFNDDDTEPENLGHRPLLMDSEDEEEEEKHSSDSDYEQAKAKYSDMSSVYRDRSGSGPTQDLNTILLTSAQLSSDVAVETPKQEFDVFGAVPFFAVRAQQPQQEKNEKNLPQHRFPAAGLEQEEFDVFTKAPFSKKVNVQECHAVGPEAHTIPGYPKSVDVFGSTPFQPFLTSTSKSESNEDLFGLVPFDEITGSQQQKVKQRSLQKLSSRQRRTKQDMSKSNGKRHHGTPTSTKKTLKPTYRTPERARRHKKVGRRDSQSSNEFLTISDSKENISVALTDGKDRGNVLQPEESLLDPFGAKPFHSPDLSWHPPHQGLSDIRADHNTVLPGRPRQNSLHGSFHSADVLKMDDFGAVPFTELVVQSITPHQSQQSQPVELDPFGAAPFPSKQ
# UniProt Q15759, sequence (whole entry, looked up): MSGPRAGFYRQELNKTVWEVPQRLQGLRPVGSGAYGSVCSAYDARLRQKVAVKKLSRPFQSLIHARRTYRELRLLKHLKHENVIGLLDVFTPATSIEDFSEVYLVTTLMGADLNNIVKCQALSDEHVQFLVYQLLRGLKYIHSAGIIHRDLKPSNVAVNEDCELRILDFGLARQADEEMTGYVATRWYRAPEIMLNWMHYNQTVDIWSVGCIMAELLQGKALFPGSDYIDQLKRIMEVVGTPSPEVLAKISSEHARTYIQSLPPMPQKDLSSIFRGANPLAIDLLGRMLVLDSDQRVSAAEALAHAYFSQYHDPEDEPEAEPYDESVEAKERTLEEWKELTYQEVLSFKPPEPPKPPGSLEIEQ
# UniProt O15111, sequence (whole entry, looked up): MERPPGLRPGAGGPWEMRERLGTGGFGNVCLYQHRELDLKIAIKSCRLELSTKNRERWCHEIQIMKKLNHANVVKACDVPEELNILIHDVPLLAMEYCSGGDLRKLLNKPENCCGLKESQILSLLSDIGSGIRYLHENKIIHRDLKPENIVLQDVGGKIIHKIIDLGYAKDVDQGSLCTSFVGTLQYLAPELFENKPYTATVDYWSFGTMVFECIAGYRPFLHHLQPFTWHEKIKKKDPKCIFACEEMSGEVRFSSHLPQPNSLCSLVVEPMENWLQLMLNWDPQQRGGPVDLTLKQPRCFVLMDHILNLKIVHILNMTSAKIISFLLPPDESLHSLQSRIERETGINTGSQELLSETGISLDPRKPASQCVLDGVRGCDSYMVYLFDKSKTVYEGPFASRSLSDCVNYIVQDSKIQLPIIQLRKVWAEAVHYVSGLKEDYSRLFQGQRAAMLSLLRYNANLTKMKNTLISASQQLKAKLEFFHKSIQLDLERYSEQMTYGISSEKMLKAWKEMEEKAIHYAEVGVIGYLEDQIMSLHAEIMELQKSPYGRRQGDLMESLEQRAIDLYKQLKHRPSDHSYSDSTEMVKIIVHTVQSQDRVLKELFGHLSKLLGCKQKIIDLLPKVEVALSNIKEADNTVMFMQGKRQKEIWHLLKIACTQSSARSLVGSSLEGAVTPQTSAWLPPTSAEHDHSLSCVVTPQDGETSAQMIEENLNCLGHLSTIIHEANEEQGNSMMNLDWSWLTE
# UniProt Q8N752, sequence (whole entry, looked up): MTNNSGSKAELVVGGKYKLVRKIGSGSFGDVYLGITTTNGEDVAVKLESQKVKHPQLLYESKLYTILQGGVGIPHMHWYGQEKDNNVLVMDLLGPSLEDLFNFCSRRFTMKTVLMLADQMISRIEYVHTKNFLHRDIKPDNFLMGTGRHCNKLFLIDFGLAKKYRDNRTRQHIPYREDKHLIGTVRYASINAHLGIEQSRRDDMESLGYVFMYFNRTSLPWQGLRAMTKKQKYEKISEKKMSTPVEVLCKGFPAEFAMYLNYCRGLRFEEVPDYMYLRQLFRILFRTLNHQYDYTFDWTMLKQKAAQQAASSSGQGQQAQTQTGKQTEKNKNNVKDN

# Set 1
# Target: ATF5, bZIP domain (human)
# Method: DHFR protein complementation
# Sample: yeast
# Setting: single substitutions, most at no-binding floor
# Relative to: wild-type JUN-FOS pair
# Direction: higher = stronger binding
# Starting sequence: JUN, bZIP domain (human); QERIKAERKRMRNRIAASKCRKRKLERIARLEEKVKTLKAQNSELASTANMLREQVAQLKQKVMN; partner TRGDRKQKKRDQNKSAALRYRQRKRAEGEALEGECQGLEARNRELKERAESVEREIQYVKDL
Substitution,binding fitness [natural log]
K39W,-1.52
N42G,-1.53
Q55D,-1.47
T48D,-1.47
L52N,-1.39
K39F,-1.48
K34M,-1.31
A57M,-1.48

# Set 2
# Compound: Cn1cc(/C=C2\C(=O)Nc3ccc(S(N)(=O)=O)cc32)c2ccccc21
# Effect on: enzyme activity
# Mode: inhibitor
# Tested at: 0.5 µM
# Relative to: control
target,remaining activity
"Tyrosine-protein kinase JAK3 (JAK3, Homo sapiens, UniProt P52333)",43.7%
"MAP kinase-activated protein kinase 2 (MAPKAPK2, Homo sapiens, UniProt P49137)",101%
"Serine/threonine-protein kinase TBK1 (TBK1, Homo sapiens, UniProt Q9UHD2)",21.6%
"Tyrosine-protein kinase Lck (LCK, Homo sapiens, UniProt P06239)",57.6%
"Angiopoietin-1 receptor (TEK, Homo sapiens, UniProt Q02763)",95.8%
"Macrophage-stimulating protein receptor (MST1R, Homo sapiens, UniProt Q04912)",100%
"Casein kinase I isoform gamma-3 (CSNK1G3, Homo sapiens, UniProt Q9Y6M4)",109%
"Mitogen-activated protein kinase kinase kinase 5 (MAP3K5, Homo sapiens, UniProt Q99683)",53.2%
"Tyrosine-protein kinase Mer (MERTK, Homo sapiens, UniProt Q12866)",45.9%
"Mitogen-activated protein kinase kinase kinase 14 (MAP3K14, Homo sapiens, UniProt Q99558)",123%
"Glycogen synthase kinase-3 beta (GSK3B, Homo sapiens, UniProt P49841)",98.4%
"Serine/threonine-protein kinase ULK3 (ULK3, Homo sapiens, UniProt Q6PHR2)",15.8%
"Wee1-like protein kinase (WEE1, Homo sapiens, UniProt P30291)",82.3%

# Set 3
# Compound: CNC(=O)Nc1ccc2c(c1)[C@@]1(CC2)OC(=O)N(CC(=O)N(Cc2ccc(F)cc2)[C@@H](C)C(F)(F)F)C1=O
# Effect on: cell-free assay
# Method: competition with immobilised ligand
# Tested at: 1 µM
target,remaining binding [%]
"Casein kinase I isoform alpha-like (CSNK1A1L, Homo sapiens, UniProt Q8N752)",100
"BMP-2-inducible protein kinase (BMP2K, Homo sapiens, UniProt Q9NSY1)",100
"Mitogen-activated protein kinase 11 (MAPK11, Homo sapiens, UniProt Q15759)",100
"Inhibitor of nuclear factor kappa-B kinase subunit alpha (CHUK, Homo sapiens, UniProt O15111)",100

# Set 4
# Target: ABI1, truncated, D143A, DHFR fusion (Arabidopsis thaliana)
# Method: DHFR PCA, deep sequencing
# Sample: yeast
# Setting: methotrexate growth selection, single substitutions
# Added: (+)-ABA 17 µM
# Relative to: wild-type fitted maximum
# Direction: higher = stronger binding
# Starting sequence: PYL1, truncated, DHFR fusion (Arabidopsis thaliana); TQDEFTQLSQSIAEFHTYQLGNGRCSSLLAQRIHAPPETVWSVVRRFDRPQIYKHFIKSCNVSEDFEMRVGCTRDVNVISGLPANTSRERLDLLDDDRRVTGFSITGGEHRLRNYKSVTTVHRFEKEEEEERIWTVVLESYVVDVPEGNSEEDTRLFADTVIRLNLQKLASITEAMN
Substitution,relative binding score [%]
V161Y,24.1
Y53W,77.8
A170K,90.3
V40P,-12.2
T17P,-15.9
D159F,-7.49
R32C,70.7
E127K,95.5

# Excerpt of the above (set 3):
target,remaining binding [%]
"Casein kinase I isoform alpha-like (CSNK1A1L, Homo sapiens, UniProt Q8N752)",100
"BMP-2-inducible protein kinase (BMP2K, Homo sapiens, UniProt Q9NSY1)",100
